Published values collected from several papers.
Numbered parts are unrelated; each lists some results of a single study. Several values in a cell are separate wells, animals, samples, runs or records.
Chain of UniProt Q9UQ88 (whole entry, looked up): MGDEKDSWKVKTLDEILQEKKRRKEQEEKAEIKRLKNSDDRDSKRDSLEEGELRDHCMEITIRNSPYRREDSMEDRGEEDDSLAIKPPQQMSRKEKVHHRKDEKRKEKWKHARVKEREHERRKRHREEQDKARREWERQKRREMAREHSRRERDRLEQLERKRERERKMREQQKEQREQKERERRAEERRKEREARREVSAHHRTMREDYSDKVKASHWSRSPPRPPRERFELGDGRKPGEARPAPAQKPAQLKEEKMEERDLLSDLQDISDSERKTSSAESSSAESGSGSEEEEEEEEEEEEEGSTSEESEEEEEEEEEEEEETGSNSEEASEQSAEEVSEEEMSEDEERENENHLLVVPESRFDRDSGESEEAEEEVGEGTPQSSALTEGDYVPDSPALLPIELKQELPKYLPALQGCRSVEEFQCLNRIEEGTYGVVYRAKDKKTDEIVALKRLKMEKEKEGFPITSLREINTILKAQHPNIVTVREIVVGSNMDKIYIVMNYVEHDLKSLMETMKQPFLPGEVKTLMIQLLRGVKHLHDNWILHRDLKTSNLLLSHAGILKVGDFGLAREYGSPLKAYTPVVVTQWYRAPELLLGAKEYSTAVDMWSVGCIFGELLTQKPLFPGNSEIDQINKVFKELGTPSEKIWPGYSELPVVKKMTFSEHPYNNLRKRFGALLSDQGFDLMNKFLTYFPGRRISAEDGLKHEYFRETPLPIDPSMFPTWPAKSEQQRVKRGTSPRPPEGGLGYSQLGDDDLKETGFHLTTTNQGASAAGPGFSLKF
Chain of UniProt P30530 (whole entry, looked up): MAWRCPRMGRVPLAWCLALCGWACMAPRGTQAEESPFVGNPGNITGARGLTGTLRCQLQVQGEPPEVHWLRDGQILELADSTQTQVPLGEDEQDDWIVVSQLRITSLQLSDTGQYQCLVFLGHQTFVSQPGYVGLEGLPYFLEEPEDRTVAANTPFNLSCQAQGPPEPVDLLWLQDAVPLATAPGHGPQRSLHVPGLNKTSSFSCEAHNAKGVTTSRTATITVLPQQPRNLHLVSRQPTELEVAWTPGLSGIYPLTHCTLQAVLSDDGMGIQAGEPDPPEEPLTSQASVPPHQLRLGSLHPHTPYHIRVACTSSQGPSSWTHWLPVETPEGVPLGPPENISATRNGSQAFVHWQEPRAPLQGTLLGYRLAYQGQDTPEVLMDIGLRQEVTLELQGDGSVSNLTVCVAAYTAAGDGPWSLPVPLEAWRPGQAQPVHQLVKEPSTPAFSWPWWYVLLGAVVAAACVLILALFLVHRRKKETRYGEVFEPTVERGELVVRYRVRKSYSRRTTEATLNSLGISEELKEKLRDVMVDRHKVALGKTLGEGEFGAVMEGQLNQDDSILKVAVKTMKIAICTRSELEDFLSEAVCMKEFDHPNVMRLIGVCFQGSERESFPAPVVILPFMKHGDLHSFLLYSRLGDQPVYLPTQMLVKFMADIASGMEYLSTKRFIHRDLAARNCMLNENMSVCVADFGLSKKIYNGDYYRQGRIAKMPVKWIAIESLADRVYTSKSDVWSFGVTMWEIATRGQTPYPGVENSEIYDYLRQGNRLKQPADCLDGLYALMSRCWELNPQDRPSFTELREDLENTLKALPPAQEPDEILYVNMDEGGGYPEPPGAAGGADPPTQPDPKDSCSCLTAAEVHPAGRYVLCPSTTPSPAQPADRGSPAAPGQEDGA
Chain of UniProt O75385 (whole entry, looked up): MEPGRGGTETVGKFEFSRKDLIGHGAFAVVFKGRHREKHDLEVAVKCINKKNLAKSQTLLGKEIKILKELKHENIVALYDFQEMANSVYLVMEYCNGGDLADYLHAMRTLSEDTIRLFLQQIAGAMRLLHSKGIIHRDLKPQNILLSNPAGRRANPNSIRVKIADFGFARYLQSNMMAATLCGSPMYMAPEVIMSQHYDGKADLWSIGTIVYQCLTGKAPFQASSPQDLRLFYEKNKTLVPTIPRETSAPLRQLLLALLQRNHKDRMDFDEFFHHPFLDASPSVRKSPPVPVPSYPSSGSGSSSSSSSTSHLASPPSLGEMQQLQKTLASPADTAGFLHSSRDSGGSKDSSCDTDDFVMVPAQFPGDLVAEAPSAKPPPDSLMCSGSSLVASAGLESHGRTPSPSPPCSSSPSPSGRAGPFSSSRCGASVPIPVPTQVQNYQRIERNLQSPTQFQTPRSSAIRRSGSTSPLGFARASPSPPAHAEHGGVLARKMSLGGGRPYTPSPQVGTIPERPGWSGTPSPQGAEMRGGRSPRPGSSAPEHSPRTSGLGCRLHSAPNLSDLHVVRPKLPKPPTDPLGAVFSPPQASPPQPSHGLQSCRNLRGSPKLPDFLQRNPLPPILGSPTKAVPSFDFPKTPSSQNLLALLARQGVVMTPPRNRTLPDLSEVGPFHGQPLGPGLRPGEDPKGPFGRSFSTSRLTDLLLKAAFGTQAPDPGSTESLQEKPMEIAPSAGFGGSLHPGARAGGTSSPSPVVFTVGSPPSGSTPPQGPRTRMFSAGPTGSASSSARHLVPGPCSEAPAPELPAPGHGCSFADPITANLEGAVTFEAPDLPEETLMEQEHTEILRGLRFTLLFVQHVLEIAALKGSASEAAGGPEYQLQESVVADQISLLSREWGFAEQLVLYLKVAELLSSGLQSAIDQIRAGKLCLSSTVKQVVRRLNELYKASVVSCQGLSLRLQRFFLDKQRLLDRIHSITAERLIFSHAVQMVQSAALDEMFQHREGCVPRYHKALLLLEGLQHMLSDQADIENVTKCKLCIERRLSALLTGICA
Chain of UniProt O14976 (whole entry, looked up): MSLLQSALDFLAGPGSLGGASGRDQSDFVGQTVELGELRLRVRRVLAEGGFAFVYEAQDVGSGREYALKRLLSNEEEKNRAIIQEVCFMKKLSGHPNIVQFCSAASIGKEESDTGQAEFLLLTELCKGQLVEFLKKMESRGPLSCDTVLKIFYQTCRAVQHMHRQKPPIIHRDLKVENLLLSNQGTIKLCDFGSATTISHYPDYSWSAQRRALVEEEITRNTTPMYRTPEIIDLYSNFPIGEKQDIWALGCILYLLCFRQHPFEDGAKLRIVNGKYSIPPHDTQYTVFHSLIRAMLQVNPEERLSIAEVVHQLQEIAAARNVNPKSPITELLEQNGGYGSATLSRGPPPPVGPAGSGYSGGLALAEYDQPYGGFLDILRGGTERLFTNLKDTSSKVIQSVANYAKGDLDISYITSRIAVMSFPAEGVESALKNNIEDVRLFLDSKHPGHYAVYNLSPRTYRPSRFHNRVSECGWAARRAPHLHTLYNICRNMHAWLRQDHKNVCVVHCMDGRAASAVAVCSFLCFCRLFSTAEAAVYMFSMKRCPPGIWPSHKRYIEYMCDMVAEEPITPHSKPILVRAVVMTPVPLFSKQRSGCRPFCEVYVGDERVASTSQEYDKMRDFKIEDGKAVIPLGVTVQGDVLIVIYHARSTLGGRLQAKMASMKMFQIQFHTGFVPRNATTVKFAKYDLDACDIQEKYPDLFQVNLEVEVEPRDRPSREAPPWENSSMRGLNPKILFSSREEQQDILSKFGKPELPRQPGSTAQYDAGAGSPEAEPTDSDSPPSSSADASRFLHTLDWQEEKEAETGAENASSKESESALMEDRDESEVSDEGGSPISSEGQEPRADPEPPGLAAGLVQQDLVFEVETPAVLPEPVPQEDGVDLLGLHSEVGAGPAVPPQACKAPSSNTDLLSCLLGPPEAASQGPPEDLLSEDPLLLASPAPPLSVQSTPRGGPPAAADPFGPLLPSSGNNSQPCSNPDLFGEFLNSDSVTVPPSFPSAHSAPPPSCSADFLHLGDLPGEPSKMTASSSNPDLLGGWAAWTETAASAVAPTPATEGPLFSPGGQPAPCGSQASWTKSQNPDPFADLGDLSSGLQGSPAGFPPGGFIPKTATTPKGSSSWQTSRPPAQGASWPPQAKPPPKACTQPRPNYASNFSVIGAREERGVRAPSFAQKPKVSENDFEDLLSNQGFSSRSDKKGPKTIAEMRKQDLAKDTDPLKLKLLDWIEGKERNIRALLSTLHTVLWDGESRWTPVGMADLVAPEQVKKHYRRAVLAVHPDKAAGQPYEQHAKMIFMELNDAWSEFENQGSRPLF
Chain of UniProt P07948 (whole entry, looked up): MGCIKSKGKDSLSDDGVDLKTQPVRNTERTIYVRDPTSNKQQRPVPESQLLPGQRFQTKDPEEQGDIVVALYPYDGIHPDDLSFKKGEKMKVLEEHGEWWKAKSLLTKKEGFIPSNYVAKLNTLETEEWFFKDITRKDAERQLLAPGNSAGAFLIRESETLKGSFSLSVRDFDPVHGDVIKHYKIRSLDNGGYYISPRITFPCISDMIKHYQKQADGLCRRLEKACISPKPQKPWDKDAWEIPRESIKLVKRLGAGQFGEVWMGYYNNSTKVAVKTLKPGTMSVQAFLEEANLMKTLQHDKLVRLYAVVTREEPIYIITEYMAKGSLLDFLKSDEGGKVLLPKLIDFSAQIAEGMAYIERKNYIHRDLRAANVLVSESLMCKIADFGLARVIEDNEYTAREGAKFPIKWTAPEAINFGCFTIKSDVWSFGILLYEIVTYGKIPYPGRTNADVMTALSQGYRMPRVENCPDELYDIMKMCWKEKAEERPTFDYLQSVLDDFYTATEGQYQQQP

Sample 1 — Structure (SMILES): CCOc1ccc(Nc2c3c(nc4ccccc24)CCC3)cc1; method: resazurin; measurement: cytotoxicity
cell line = HEK293; tested at = 0.66 µM; setting = 10% serum; result = 11% and 12%
cell line = RAW264.7; tested at = 6.66 µM; time = 64 h; result = 7% and 13%
cell line = RAW264.7; tested at = 33.32 µM; time = 64 h; result = 81% and 84%
cell line = RAW264.7; tested at = 1.66 µM; result = -3% and -2%
cell line = RAW264.7; tested at = 0.0332 µM; result = -4% and -5%
cell line = HEK293; tested at = 66.66 µM; setting = 10% serum; result = 100%
cell line = J774.1; tested at = 0.166 µM; result = -2% and 2%
cell line = RAW264.7; tested at = 0.166 µM; result = 0% and -1%
cell line = RAW264.7; tested at = 0.0066 µM; time = 64 h; result = -3% and -2%

Sample 2 — tested at: 1 µM; measurement: remaining binding
Structure (SMILES): CO[C@@H](C)c1c(Nc2ccc([C@H](N(C)C(=O)C3CCS(=O)(=O)CC3)C(F)(F)F)cc2)cnc2cc(Cl)nn12
target = RAF1 (Homo sapiens, UniProt P04049); read-out = cell-free assay; method = competition with immobilised ligand; result = 97%
target = ULK1 (Homo sapiens, UniProt O75385); read-out = cell-free assay; method = competition with immobilised ligand; result = 100%
target = Receptor-type tyrosine-protein kinase FLT3, autoinhibited (FLT3, Homo sapiens, UniProt P36888); read-out = cell-free assay; method = competition with immobilised ligand; result = 100%
target = MAPK9 (Homo sapiens, UniProt P45984); read-out = cell-free assay; method = competition with immobilised ligand; result = 92%
target = DYRK1A (Homo sapiens, UniProt Q13627); read-out = cell-free assay; method = competition with immobilised ligand; result = 75%
target = GAK (Homo sapiens, UniProt O14976); read-out = cell-free assay; method = competition with immobilised ligand; result = 98%
target = FYN (Homo sapiens, UniProt P06241); read-out = cell-free assay; method = competition with immobilised ligand; result = 100%
target = MAP3K14 (Homo sapiens, UniProt Q99558); read-out = cell-free assay; method = competition with immobilised ligand; result = 94%
target = AXL (Homo sapiens, UniProt P30530); read-out = cell-free assay; method = competition with immobilised ligand; result = 76%
target = CAMK1 (Homo sapiens, UniProt Q14012); read-out = cell-free assay; method = competition with immobilised ligand; result = 66%
target = AAK1 (Homo sapiens, UniProt Q2M2I8); read-out = binding; result = 84%
target = SRC (Homo sapiens, UniProt P12931); read-out = cell-free assay; method = competition with immobilised ligand; result = 99%
target = EPHB6 (Homo sapiens, UniProt O15197); read-out = cell-free assay; method = competition with immobilised ligand; result = 100%
target = PNCK (Homo sapiens, UniProt Q6P2M8); read-out = cell-free assay; method = competition with immobilised ligand; result = 100%
target = CDK11A (Homo sapiens, UniProt Q9UQ88); read-out = binding; method = competition with immobilised ligand; result = 93%
target = LYN (Homo sapiens, UniProt P07948); read-out = cell-free assay; method = competition with immobilised ligand; result = 77%

Sample 3 — read-out: binding; method: NanoBRET; cell line: HEK293 (live); direction: lower = stronger binding; measurement: target engagement
SMILES: CC(=O)N1CCN(c2nc(OC[C@@H]3CCCN3C)nc3c2CCN(c2cccc4cccc(Cl)c24)C3)C[C@@H]1CC#N
Target: GTPase HRas (HRAS, Homo sapiens, UniProt P01112)
tested at = 1.046 µM; result = 109% and 102% and 108%
tested at = 0.5686 µM; result = 96.4% and 101% and 106%
tested at = 1.523 µM; result = 120% and 141% and 116%

Sample 4 — read-out: enzyme activity; mode: inhibitor; tested at: 0.5 µM; relative to: control; measurement: remaining activity
Target: Mitogen-activated protein kinase 10 (MAPK10, Homo sapiens, UniProt P53779)
Chain of UniProt P53779 (whole entry, looked up): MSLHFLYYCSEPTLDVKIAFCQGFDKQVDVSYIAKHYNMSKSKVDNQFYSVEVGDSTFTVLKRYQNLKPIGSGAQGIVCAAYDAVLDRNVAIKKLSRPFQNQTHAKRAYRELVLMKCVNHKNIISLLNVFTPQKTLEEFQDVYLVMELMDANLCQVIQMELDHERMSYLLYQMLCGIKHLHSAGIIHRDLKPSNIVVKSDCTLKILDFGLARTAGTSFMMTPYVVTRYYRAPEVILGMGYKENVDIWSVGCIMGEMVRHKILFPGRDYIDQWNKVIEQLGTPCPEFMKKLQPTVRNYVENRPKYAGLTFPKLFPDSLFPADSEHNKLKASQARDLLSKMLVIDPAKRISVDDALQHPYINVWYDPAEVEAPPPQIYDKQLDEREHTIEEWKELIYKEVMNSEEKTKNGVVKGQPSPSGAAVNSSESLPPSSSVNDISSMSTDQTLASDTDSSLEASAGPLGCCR
SMILES = O=C(NC(NC(=S)Nc1ccc(F)c([N+](=O)[O-])c1)C(Cl)(Cl)Cl)C(c1ccccc1)c1ccccc1 (stereo not shown); result = 96.2%
SMILES = O=C1c2ccccc2-c2n[nH]c3cccc1c23; result = 115%
SMILES = Cn1nc2c3c(cccc31)C(=O)c1ccccc1-2; result = 97.3%
SMILES = CN([C@@H](Cc1ccc(OS(=O)(=O)c2cccc3cnccc23)cc1)C(=O)N1CCN(c2ccccc2)CC1)S(=O)(=O)c1cccc2cnccc12; result = 88.2%
SMILES = N#Cc1c(NC(=O)c2cccc3ccccc23)sc2c1CCCC2; result = 112%
SMILES = c1ccc(-c2[nH]ncc2-c2ccnc3ccccc23)nc1; result = 92.9%
SMILES = CN(C)C[C@H]1CCn2c(c(C3=C(c4cn(C)c5ccccc45)C(=O)NC3=O)c3ccccc32)C1; result = 101%
SMILES = Cc1cc2ncc(-c3ccccc3)nc2cc1C; result = 103%
SMILES = Cc1cn(-c2cc(NC(=O)c3ccc(C)c(Nc4nccc(-c5cccnc5)n4)c3)cc(C(F)(F)F)c2)cn1; result = 117%
SMILES = C[C@@H]1CCN(C(=O)CC#N)C[C@@H]1N(C)c1ncnc2[nH]ccc12; result = 100%
SMILES = COc1cc2c(cc1OC)-c1[nH]nc(Nc3cccc(F)c3)c1C2; result = 102%
SMILES = CCN(CC)CCNC(=O)c1c(C)[nH]c(/C=C2\C(=O)Nc3ccc(Cl)cc32)c1C; result = 104%
SMILES = CCN(CC)CCNC(=O)c1c(C)[nH]c(/C=C2\C(=O)Nc3ccc(F)cc32)c1C; result = 99.5%
SMILES = CCN(CC)C(=O)c1ccc(Nc2nc(OCC3CCCCC3)c3[nH]cnc3n2)cc1; result = 108%
SMILES = Nc1cccc(-c2cc3c(Oc4cccc(O)c4)ncnc3[nH]2)c1; result = 89.4%
SMILES = N#C/C(=C\c1ccc(O)c(O)c1)C(=O)NCc1ccccc1; result = 98%
SMILES = O=C(Nc1cccc(Nc2nccc(Nc3cccc(C(F)(F)F)c3)n2)c1)C1CC1; result = 99%
SMILES = O=c1cc(-c2cccc3c2Sc2ccccc2S3)oc(N2CCOCC2)c1; result = 93.6%
SMILES = COc1cc2ncnc(Nc3ccc(O)c(Br)c3)c2cc1OC; result = 89%
SMILES = O=C1C(Cl)=C(N2C(=O)CCC2=O)C(=O)c2ccccc21; result = 93.6%
SMILES = COc1cc2ncnc(Nc3cccc(Cl)c3)c2cc1OC; result = 89%
SMILES = c1ccc(-c2cnc(Nc3ccc(OCCN4CCCC4)cc3)s2)cc1; result = 92.9%
SMILES = Ic1cccc(CSc2nnc(-c3ccncc3)o2)c1; result = 95.7%
SMILES = Cc1nc2cc3nc(-c4cccs4)cnc3cc2n1C; result = 96.3%
